Experimental data of several laboratories.
Parts stem from different laboratories: compare values within a part only. Substitutions count along the parent as printed.

Study 1
Target: CCND2, cyclin fold, Cln2 fusion (human)
Method: yeast growth competition, sequencing
Sample: yeast
Notes: weak parent motif
Reference: not given
Direction: higher = stronger binding
Quantity: normalised enrichment score
Parent: GMNC docking peptide (human); KNAKRNLSSEFAN; partner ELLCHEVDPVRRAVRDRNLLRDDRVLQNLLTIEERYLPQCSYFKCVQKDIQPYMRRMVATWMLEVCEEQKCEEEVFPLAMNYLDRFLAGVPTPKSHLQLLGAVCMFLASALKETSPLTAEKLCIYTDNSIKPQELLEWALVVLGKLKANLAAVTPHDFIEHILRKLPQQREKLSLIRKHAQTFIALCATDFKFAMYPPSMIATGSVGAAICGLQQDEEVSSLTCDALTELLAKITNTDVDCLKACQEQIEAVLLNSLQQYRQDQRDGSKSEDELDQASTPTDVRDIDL
Change = R5T; result = -0.146
Change = S9H; result = 0.234
Change = L7G; result = 0.458
Change = N2M; result = 0.0837
Change = R5C; result = 0.0534
Change = K4D; result = 0.28
Change = R5I; result = 0.231
Change = A3F; result = 0.295

Study 2
Target: Sal-like protein 4, full length isoform A (SALL4, Homo sapiens, UniProt Q9UJQ4, residues 1-1053)
Sequence of UniProt Q9UJQ4 (whole entry, looked up): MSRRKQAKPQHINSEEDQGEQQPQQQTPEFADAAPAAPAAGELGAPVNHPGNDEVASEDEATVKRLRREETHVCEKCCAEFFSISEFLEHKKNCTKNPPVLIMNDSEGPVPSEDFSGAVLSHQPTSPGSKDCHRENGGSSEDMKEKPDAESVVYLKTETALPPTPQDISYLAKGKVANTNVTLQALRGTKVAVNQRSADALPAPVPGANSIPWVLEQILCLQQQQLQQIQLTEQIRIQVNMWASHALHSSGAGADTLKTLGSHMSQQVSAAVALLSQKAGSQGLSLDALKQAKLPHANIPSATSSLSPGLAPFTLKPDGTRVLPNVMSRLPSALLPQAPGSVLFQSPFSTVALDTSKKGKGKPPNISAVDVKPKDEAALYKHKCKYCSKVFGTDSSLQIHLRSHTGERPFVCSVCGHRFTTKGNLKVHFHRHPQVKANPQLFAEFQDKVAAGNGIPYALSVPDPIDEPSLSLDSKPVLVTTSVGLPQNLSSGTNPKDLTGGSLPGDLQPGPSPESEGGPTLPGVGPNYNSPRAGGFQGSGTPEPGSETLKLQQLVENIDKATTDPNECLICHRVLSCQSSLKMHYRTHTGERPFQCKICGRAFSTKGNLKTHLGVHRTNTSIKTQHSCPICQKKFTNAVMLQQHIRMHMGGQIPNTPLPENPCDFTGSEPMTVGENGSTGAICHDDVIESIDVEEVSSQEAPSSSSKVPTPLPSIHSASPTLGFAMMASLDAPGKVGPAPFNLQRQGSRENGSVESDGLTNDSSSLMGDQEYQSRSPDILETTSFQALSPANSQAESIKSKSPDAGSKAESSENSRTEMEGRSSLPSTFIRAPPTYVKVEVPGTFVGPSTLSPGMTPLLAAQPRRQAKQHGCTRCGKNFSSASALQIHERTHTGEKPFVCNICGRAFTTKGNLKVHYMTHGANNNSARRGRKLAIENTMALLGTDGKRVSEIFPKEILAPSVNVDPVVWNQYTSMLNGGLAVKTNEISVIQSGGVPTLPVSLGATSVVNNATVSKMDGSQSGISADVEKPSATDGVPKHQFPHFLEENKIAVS
Method: universal PBM
Form: double-stranded DNA, one strand shown
Sample: in vitro
Tested at: 600 nM
Notes: 8-mer, flanks averaged, mean of replicates
Direction: higher = stronger binding
Quantity: E-score
Strand = GGCATATA; result = 0.325
Strand = TTCTTCAA; result = 0.139
Strand = AAGGTCGC; result = -0.157
Strand = AACCACAG; result = -0.0762
Strand = CCACAGCC; result = -0.264
Strand = CAGATCCG; result = -0.142

Study 3
Target: Histone acetyltransferase KAT6A, both winged helices, GST fusion (KAT6A, Homo sapiens, UniProt Q92794, residues 1-181)
Method: protein binding microarray
Form: double-stranded DNA, one strand shown
Sample: in vitro
Tested at: not given
Notes: 8-mer, flanks averaged, mean of 2 arrays, mostly near background
Reference: not given
Direction: higher = stronger binding
Quantity: E-score
Target sequence (chain): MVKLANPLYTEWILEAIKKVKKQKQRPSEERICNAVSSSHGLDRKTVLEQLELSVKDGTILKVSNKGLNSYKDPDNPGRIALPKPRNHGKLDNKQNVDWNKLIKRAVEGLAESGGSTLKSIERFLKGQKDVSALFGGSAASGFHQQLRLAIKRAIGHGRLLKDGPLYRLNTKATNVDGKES
Strand = GCTCAACA; result = 0.0339
Strand = ACGATTCG; result = 0.183
Strand = AGGGAGTA; result = -0.228
Strand = CATACTCA; result = -0.119
Strand = AAACGCTA; result = 0.0822

Other studies, line by line
Substance = PhoQ, residues 284 288 289 292 302 303 GLASVI; target = PhoP, residues 12 14 15 18 19 SPWRL (Escherichia coli, UniProt P23836); assay = Sort-seq, refers to: YFP reporter; test system = E. coli; setting = PhoQ-PhoP variant library, together with: 10 µM Mg2+; how to read = reference: high Mg2+ state, higher = stronger signaling; quantity = fold induction; result = 21.2
